Assay results gathered from unrelated publications.
A part holds a random share of what one study measured.
Chain of UniProt P54756 (whole entry, looked up): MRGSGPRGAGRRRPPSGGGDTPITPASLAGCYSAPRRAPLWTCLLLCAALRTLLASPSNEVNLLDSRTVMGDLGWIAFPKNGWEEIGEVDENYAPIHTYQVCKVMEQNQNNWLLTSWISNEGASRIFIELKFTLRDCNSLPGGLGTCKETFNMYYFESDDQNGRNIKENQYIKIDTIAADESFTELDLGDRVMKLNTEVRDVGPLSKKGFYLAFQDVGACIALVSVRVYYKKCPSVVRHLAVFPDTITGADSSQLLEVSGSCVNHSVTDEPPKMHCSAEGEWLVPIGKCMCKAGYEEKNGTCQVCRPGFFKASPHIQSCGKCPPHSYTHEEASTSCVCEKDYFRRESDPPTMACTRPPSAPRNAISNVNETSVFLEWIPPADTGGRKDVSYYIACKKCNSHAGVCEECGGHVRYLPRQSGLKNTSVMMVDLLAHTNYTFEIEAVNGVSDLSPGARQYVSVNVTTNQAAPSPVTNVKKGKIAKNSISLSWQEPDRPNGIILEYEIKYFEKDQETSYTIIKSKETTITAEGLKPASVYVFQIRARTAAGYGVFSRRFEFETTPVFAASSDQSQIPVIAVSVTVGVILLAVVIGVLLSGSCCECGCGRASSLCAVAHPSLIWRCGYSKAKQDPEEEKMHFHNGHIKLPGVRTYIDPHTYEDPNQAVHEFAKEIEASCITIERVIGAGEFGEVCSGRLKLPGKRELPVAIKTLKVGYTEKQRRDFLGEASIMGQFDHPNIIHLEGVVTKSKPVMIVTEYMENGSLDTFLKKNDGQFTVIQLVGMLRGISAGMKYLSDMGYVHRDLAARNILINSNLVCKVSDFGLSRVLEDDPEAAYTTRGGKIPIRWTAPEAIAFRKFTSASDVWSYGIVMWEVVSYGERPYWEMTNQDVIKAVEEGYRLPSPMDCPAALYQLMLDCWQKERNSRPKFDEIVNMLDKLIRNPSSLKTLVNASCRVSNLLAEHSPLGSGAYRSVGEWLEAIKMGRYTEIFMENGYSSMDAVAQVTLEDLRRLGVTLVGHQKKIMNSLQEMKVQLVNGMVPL
Chain of UniProt Q13464 (whole entry, looked up): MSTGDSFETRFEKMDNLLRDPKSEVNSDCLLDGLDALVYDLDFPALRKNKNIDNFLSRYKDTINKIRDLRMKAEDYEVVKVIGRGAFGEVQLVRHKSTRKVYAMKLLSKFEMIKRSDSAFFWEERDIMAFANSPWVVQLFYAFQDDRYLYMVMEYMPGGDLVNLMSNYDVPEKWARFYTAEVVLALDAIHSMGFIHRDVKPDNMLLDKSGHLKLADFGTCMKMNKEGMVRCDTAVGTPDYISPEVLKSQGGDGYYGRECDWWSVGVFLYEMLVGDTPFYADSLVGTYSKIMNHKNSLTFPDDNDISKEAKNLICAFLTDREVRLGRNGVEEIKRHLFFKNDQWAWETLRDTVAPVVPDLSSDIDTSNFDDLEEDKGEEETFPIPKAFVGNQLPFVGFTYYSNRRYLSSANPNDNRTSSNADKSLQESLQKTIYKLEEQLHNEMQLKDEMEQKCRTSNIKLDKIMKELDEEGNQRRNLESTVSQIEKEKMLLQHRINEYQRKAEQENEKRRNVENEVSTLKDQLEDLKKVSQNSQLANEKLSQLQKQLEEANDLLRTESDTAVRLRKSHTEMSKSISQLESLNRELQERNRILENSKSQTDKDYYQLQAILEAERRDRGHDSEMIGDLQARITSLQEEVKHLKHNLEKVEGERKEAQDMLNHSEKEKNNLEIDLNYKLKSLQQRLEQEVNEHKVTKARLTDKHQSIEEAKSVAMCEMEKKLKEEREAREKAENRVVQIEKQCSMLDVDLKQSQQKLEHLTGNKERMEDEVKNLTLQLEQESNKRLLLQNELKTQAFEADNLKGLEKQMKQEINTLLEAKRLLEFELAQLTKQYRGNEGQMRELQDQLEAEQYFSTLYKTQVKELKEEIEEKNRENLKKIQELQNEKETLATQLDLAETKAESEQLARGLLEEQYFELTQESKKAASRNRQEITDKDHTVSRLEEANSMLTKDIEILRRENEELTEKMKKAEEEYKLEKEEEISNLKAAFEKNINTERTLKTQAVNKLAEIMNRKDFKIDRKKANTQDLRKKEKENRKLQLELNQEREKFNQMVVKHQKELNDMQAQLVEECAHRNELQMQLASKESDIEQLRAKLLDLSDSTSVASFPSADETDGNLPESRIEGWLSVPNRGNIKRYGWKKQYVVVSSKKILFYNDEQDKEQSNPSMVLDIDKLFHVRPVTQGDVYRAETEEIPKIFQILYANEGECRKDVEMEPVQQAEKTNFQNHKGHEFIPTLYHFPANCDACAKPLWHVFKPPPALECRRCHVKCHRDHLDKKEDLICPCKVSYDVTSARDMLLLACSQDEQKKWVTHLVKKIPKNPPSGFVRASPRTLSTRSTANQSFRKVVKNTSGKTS

Study 1
Target: Receptor-type tyrosine-protein kinase FLT3 (FLT3, Homo sapiens, UniProt P36888)
Observed: enzyme activity
Action: inhibitor
Concentration: 0.5 µM
Reference: control
Measurement: remaining activity
Nc1ncnc2n[nH]c(Nc3ccc(F)cc3)c12: 78.3%
O=S(=O)(c1cccc2cnccc12)N1CCCNCC1: 103%
NCCNc1ncc(C(N)=O)c(Nc2cccc(C(F)(F)F)c2)n1: 32.3%
O=C(Nc1cccc(Nc2cc(Nc3cccc(C(F)(F)F)c3)ncn2)c1)C1CC1: 97.9%
O=C(O)c1ccc2c3c1cccc3c(=O)n1c3ccccc3nc21: 68.9%
O=C1NC(=O)C(c2cn(CCCO)c3ncccc23)=C1c1cnccn1: 87.8%
Cc1cccc(-c2[nH]c(C(C)(C)C)nc2-c2ccc3c(c2)OCO3)n1: 96.2%
O=C1NC(=O)C(c2cn(CCCn3ccnc3)c3ccccc23)=C1Nc1ccccc1: 8.21%
Cn1sc(=O)n(Cc2ccccc2)c1=O: 99.1%
Nc1[nH]nc2nc3ccccc3nc12: 75.9%
O=c1c2ccccc2[nH]c(=S)n1CCN1CCC(=C(c2ccc(F)cc2)c2ccc(F)cc2)CC1: 104%
N#CC(C#N)=C(N)/C(C#N)=C/c1ccc(O)cc1: 92.2%
CN(C)c1ccc(C=C2C(=O)Nc3ccccc32)cc1: 15.3%
OCC(O)CCON=C1C(c2c(O)[nH]c3ccccc23)=Nc2ccccc21 (centres unmarked): 1.07%
O=C(CCCc1ccc(-c2ccccc2F)cc1)Nc1ccc(O)cc1: 104%
COc1cc2ncnc(Nc3ccc(Oc4ccccc4)cc3)c2cc1OC: 3.23%

Study 2
Target: Ras GTPase-activating protein-binding protein 1, RRM domain (G3BP1, Homo sapiens, UniProt Q13283)
Chain of UniProt Q13283 (whole entry, looked up): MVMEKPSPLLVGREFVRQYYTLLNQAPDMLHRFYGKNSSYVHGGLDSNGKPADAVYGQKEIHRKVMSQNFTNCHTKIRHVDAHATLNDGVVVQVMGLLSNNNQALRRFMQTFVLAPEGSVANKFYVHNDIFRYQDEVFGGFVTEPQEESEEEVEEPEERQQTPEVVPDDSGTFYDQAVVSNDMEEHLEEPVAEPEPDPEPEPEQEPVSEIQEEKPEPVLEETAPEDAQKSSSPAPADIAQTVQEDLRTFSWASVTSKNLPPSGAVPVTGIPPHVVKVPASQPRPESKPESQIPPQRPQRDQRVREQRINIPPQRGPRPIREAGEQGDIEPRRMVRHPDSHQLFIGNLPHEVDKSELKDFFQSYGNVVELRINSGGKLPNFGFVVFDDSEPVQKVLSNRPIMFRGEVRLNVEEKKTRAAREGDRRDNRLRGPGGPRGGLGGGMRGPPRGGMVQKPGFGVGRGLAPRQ
Method: RNA Bind-n-Seq
Form: RNA
Medium: in vitro
Concentration: 1 µM
Notes: whole 134-nt RNA, ends assumed
Added: 150 mM KCl
Reference: input library
Direction: higher = stronger binding
Measurement: log2 enrichment
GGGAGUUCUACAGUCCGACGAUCACCAUGCAGGUGGGCAUCUUUGGGAAGUGGGGCAAGGGGGGGAUAGGGAGGGGGGUAACACUUUGUGAACAGGUGGUCCCAGGUCGUUUCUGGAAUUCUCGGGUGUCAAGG: 1.04
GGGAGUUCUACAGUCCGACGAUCAAGUCCUGUGCUACACAUCGUAUGUACCGAAUCAAACCCCCAAAUUUAAAUUUAAAAAAGUAUUAUGUUACGCCGUUCGGAUCUGCACUUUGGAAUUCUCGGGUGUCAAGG: -0.0549
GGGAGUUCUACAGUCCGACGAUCUAACUUUAGAGGAGGAUCUGAUGGAUAUGGCGGUGGACGUGGAUUUGGGGAUGGCUAUAAUGGGUAUGGAGGAGGACCUGGAGGUGGCAAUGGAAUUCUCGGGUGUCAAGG: -0.677
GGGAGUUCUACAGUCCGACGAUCUGGCCCUGGCGGCAUGCGGGGAGGAAGAGGUGGCCUCAUGGAUCGUGGUGGUCCCGGUGGAAUGUUCAGAGGUGGCCGUGGUGGAGACAGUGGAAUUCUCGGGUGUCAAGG: 0.888
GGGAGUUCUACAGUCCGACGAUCUAAUUAUGUUUUAUUUUCUUUAAUUGCAGGACUUCAUAGACCUCACGUUGUCGAAGACUCAACGAAAGACUCCAACCGUUAUUCAUAAACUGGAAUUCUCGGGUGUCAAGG: -0.585
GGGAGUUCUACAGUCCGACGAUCCCUGUGCUACACAUCGUAUGUACCGAAUCGGGUUUUUGGGAAAAAAAGGGAAAAAAAGGGAAAGUAUUAUGUUACGCCGUUCGGAUCUGCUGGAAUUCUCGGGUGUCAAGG: -0.178
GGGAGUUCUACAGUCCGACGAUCGUCCUGUGCUACACAUCGUAUGUACCGAAUCGGGCCCCCGGGCCCCCGGGCCCCCGGGGAAAGUAUUAUGUUACGCCGUUCGGAUCUGCAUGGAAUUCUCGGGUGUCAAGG: -0.658
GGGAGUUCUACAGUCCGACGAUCUCAAGUCCUGUGCUACACAUCGUAUGUACCGAAUCGGAAAGGUUUUUUUGGUGGAAAGUAUUAUGUUACGCCGUUCGGAUCUGCACUUCCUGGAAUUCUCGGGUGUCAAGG: -0.251

Study 3
SMILES: O=C(Nc1cccnn1)N1CCC(=Cc2cccc(Oc3ccc(C(F)(F)F)cn3)c2)CC1
Observed: cell-free assay
Method: competition with immobilised ligand
Concentration: 1 µM
Measurement: remaining binding
Rho-associated protein kinase 1 (ROCK1, Homo sapiens, UniProt Q13464): 100%
Epidermal growth factor receptor (EGFR, Homo sapiens, UniProt P00533, del752-759): 69%
Ephrin type-A receptor 5 (EPHA5, Homo sapiens, UniProt P54756): 98%
Tyrosine-protein kinase ABL1, phosphorylated (ABL1, Homo sapiens, UniProt P00519, M351T): 99%

Single results of other studies
Method: cross-linking MS
Medium: cell fractions
Added: DSSO
BOP1 (Homo sapiens, UniProt Q14137)
cross-linked residues (NOC3L (Homo sapiens, UniProt Q8WTT2)): K339 to K147

NUP155 (Homo sapiens, UniProt O75694)
cross-linked residues (NUP205 (Homo sapiens, UniProt Q92621)): K1069 to K1219

YWHAQ (Homo sapiens, UniProt P27348)
cross-linked residues (YWHAZ (Homo sapiens, UniProt P63104)): K9 to K85

HAUS7 (Homo sapiens, UniProt Q99871)
cross-linked residues (HAUS2 (Homo sapiens, UniProt Q9NVX0)): K228 to K74

Some of these lines once more (study 1):
O=C(O)c1ccc2c3c1cccc3c(=O)n1c3ccccc3nc21: 68.9%
O=C1NC(=O)C(c2cn(CCCO)c3ncccc23)=C1c1cnccn1: 87.8%
Cc1cccc(-c2[nH]c(C(C)(C)C)nc2-c2ccc3c(c2)OCO3)n1: 96.2%
O=C1NC(=O)C(c2cn(CCCn3ccnc3)c3ccccc23)=C1Nc1ccccc1: 8.21%
